# Measured values collected from several papers.
# Every numbered part comes from another study and shows a few of its results, in no order.

# Block 1 — technique: RNAcompete; form: RNA; matrix: in vitro; concentration: 20 nM; setting: 7-mer, probes averaged, single round; relative to: mean of 7-mers; reading: higher = stronger binding
# Target: PABPC1L2, full length, GST fusion (mouse, UniProt A0ABA7IW68)
# Construct (chain): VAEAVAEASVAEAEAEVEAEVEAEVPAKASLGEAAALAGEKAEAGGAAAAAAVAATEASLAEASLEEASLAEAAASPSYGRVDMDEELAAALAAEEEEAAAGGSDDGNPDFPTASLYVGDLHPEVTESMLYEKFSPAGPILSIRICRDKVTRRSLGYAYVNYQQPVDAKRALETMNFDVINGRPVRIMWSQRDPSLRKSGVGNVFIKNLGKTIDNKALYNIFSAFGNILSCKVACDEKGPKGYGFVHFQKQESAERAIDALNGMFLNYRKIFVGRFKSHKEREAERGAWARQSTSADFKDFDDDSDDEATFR
Oligonucleotide,7-mer Z-score
UCUUAGG,-0.306
CCGUCGA,-0.322
AGUUUCG,-0.396
CUCACUU,-0.226
AUCGAGA,-0.00833
GGUUGAU,-0.0228
GCAGCUC,-0.15
ACCAAAC,0.481
CUUCAGA,-0.175
CAAAAAU,20
AUUCACA,-0.0337
UCGUCAU,-0.403
AUCCUUG,-0.197
GUCUGGC,-0.0554
ACAUGGG,0.37
CCGCGAA,0.00254
AGAUAGC,-0.24
CUGCCUC,-0.342
UUGGUUC,-0.304
ACCGGAG,0.0189
UUUCCAC,-0.19
CAUGUAU,-0.2
CUCUGUC,-0.42
UCACCCG,-0.407
UCCUGAC,-0.248

# Block 2 — technique: RNA Bind-n-Seq; form: RNA; matrix: in vitro; concentration: 365 nM; relative to: no-protein control; reading: higher = stronger binding
# Target: RNA binding protein fox-1 homolog 2, RRM domain, GST-SBP tag (RBFOX2, Homo sapiens, UniProt O43251-10, residues 100-194)
# Setting: natural RNA segment, single round, ends assumed
# Shared flanks, not repeated: GGGAGUUCUACAGUCCGACGAUC … UGGAAUUCUCGGGUGCCAA
# Residues (chain): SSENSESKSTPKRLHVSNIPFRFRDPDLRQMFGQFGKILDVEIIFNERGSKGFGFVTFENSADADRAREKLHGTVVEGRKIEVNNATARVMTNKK
Oligonucleotide,RBNS enrichment (R)
AAGCGAGGUCAGACAUCCACCAGAAUCAACUCAGCCUCAGGCAUCCAAAGCCACAUCACAGUCGGUGGUGAUGCAUCUGGGGGCUUACUCUGAGGAAACCUAGGAAAUCU,0.221
UUAUGGACUCUGAAGACACUUCAAAACAUUAAAAGUCCUUAUGUCUUUGGUAAUGAAACAAUAACACUCAAUGAAGGAUGUAUUAAAAUUUUUGACUUAAUUUUGAAAUC,0.434
CUGCUUUUUAAGAGAAAUUUCAGGAAGGAUGAUCAUUCCAGUUAGUUUGGCAUUUUUUGUCGUUUGUGCACAUAACUUGGUGUUAUCCUUAUGUCAUCAGAUUCCUCCUA,0.618
UUGCCUCCCCCGACCGCCAUGGAGGGGGCAGCCCGGCACAGCUGCUGGGAGCCCUUGUGUGUCUGGUCACACUUUUUAGGCGUCACGCCAAAGGCCAGCCUCCUGGCCCC,0.305
GGUUCCAGCUGAGUGGCUUGCAGGCGUGAGCGCAGGGCACGGUGGUCAGCGUGCAGCGGGACGGGACUGGCCCUGCCCAGCCAUGAAUCGCUUGGCCAUGCCUGGAUCUG,0.426
CCCCUGAGAGGAGGUCGAAUGGGUAAAGGAGCAUUUUUUUAUUCAGCAGACUUUCUCUGUGUAUGAGUGUGAAUGAUCAAGUCCUUUGUGAAUAUUUUCAACUAUGUAGG,0.666
CCUUCUAGUUGCAUUAGUACUGUCUUUCUGUGGAGUUUGGUUUGAAGACUGGCUCAGCAAGUGGAGGUUUCAAUGUAUUUUUCAGUUGGCUCAUCAGCCAGCAUUGGUGA,1.09
UCUAUAUGAAGAAGAUGGACAUUUUAUCCUCUUAUGGUGAUGUUUUUUGGAAAUUUCCAUCAUCCUCAAGUCACGCAAAUACCAAUUUCACAUCGGAGCUGCGUGUGAAA,0.906
AUGGACUACCCUGAGGAUGGGAUCACCCCCUUCGUGCCUCAUGGAAUUCAGUCCCAUGCACUACACUCUGGAUGGUGUAUGACUGGAUGAAUGGGUUUCUAUAUAUGGGU,0.263
GAUUAUGGAUCAGUUCUGACAUUAAAAUCAUAGUUAAUUGAUGGAUGGUUUUUAUAGUUUGUUGAUAAAGUGGACACAGUAUUGUCUGAGCAGUUAUAUUUUAAUGCAUU,0.656
ACCGAGCAAGGUGGGUGGCUCUGGCACGAGUCCCCCAGGGGGAGAGCAUGGCUACCAGGGAGCUGCAGCGGAGCCCUCCAGCCCUCACCCCAGGCCAGCCCCACCCCGGC,2.71
AAAGUCUGGACUCAGCCACAAACUACUACAGCCUGUCCACCUGAAAUCUUGACUUACCCAGUCCCCACCUGUCUCUUCCUGCCUUCUUUAUCUGUAAGAACACAAAUUUG,0.381

# Block 3 — technique: protein-binding microarray; form: double-stranded DNA, one strand shown; matrix: in vitro; concentration: 2540 nM top; setting: 60-bp whole probe; with: salmon DNA 0.4 mg/ml; relative to: random background probes; reading: higher = stronger binding; shared flanks, not repeated: GCCTAGCAC … GTCTTGATTCGCTTGACGCTGCTG
# Target: Interferon regulatory factor 3, full length, phosphomimetic (IRF3, Homo sapiens, UniProt Q14653, residues 1-427, S386D/S396D/S398D/S402D/T404D/S405D)
# UniProt Q14653, sequence (whole entry, unmodified, looked up): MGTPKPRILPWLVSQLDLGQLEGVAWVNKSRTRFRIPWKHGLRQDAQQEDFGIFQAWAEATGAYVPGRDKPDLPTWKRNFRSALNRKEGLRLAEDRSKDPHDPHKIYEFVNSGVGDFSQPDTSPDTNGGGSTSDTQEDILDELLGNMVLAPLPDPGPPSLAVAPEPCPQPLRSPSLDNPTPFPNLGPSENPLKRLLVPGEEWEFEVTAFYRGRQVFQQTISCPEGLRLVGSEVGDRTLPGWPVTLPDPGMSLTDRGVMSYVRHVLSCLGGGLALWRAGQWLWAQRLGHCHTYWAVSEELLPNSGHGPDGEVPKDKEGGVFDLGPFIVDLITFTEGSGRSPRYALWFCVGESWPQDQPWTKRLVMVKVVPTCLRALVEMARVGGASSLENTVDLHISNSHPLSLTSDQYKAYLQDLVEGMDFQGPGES
Oligonucleotide,fitted relative affinity
GACGATCTCAGCATCGAGACGTGCTAG,0.146 z-score
TTAGGACAGGACTTTCGGTTAGTGCTA,1.44 z-score
GACGGTATCGGTCTCGCGACGTGCTAG,4.39 z-score
GACGGACTGGACTTTCGGAACGTGCTA,1.47 z-score
TCACTTTTTAAGATCTGACTGTGCTAG,1.17 z-score
TTAGGTATCGGACTGGGCTAGTGCTAG,1.12 z-score
TCACTTTCCTTCTTGATACTGTGCTAG,9.83 z-score
TTAGATATCTGGTTTCGATTAGTGCTA,2.75 z-score
TCATCTCTGCTTCTGTAACTGTGCTAG,0.845 z-score
TTAGGAGTGGACTATCGGTTAGTGCTA,-0.555 z-score
TCCTTTATGTACTCTCTACATGTGCTA,1.5 z-score
GACGTACTGCTTATCCTGACGTGCTAG,0.16 z-score
TTAGGTCTCGGACTGGGTGAGTGCTAG,-0.419 z-score
GACGAACTGAGTATCAAGACGTGCTAG,-0.0265 z-score
TTAGAACTGAGTCTGGATTAGTGCTAG,-0.456 z-score
TCATAATTCTTTGCTCATACTGTGCTA,0.273 z-score
TAAGGTTCCCTTTTCCTTTAGTGCTAG,7.78 z-score
TTAGATATCGGGTCTCGATTAGTGCTA,0.535 z-score
TACGGTCTCCTACTGCTGACGTGCTAG,1.05 z-score
TTAGGTTTCCTTATCATTTAGTGCTAG,8.13 z-score
GACGGTTTCCTTAACCTGACGTGCTAG,5.12 z-score
TCAGACCTCGTCTCTATCACTGTGCTA,-0.0994 z-score
GACGATTTGGGGTTTCGAGACGTGCTA,0.66 z-score
TCATATTTAAGGCCTATGACTGTGCTA,0.358 z-score
GACGGTTTGGGGACTGGGGACGTGCTA,-0.315 z-score

# Block 4 — technique: RNA Bind-n-Seq; form: RNA; matrix: in vitro; concentration: not given; setting: RNA with constant flanks, ends assumed; relative to: input RNA pool; reading: higher = stronger binding
# Target: RING finger protein unkempt homolog, zinc fingers 1-6, GST-SBP tag (UNK, Homo sapiens, UniProt Q9C0B0, residues 30-357)
# Shared flanks, not repeated: GGGAGUUCUACAGUCCGACGAUC … CAACAGAGGAUUGAGCAUCA
# Construct (chain): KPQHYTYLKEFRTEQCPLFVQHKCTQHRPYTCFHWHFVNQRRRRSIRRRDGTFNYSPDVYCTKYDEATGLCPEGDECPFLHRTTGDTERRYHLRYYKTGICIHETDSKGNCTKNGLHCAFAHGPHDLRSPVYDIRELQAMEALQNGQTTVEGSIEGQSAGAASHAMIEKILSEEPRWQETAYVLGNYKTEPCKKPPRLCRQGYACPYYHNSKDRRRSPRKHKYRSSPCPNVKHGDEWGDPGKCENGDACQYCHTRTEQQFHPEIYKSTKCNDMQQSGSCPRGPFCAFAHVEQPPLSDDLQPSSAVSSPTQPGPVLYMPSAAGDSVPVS
Oligonucleotide,bound/input enrichment
GAAGAACCAAGAGCUUUAUACAUACAUUGUUAUGCACACUUUUUGGAUUUAUCAAUAAUCCGGUUUUGUAAAGAAGUAAAAGAACUCCGAAGUGCUCUAAAAACUCUCAGUUCUUUGUUC,0.191 ratio
AUUGCAGCUAAAUACCAGUUGGAUCCUACUGCUUCUAUCUCUGCAAAGGUCAACAACUCCCGUUUAAUUGGAGUGGGCUAUACUCAGACUCUGAGGCCUGGUGUGAAGCUUACACUGUCU,0.072 ratio
GAGCUGAGUUUAAUCAGGUGUCCAAAAUGUGAGUUAAACAUUACCUUAUAUUUACACUGUCCGUUUUUAUUGUUUUAGAUUUAUUAUGCUUCUUCUGGAAGUAUUAGUGAUGCUACUUUU,67.1 ratio
AGGUUGGGUCAUGACCCCUACAGGUUAGGCCAUGAUGCUUACAGGUUAGGACAAGACCCUUACCGAUCCGGCCAUGAUCCCUACAGACUAACUCCGGAUCCCUAUAGGGUAUCACCUAGG,0.155 ratio
CCACCUCUAGCUUUCUUCCUACCCCAUUCCCGGCUUCCCUCCUCCUCCCCUGCAGCCUGGUCCGGUGGAUACCUGCCCUGACAUGUGAGGCAAGCUAAGGCCUGGAGGGUCAGAUGGGAG,0.239 ratio
ACAAUGAAACUAGUCUGGAAAAAAAAACUUGCUUUUUGUUGUAGUUACCACUUAACCCUGCCGUUUAACAAGGAAUGUCUGUGCCAAUAAACCAAUUCUCCCUCUGCUUGACAUUGGCAG,0.684 ratio
UGUAAAUUACCUUUACUGUGUGUACAUUUUUACUGUAUUUGAGACAUUUUUUUGUGUGUGACCCGUUAAUUUUGCAGGAUGUGCCAUAUCAAUUGAACGGAACUAAAGUCUGUGACAGUG,0.212 ratio
GGCAUGUUGGAUAUGUGCGGCUUUGAUACUGGAGCUCUGGAUGUAAUUCGAAAUUUCACAUCCGAUAUGAUUUAACCAUAAGCAGCAGCACGAUCCAGAGAUCCAUUGCCAUCAGUGAUC,0.18 ratio
AACGAGGCUUCGAAAGCACACGUUAGAAGCAGAUGGAGAUGUGGCUGGGGCAUCAGGAGGACCCGAGAUGGUGGAUGUGAAAGGGAAGCCACCAUGUGGCUCUUGUCUUCAAUGGUAUCC,0.154 ratio
UUAUGUCUUAUAAUCCUGCAUCACUUCCAUCCUAUCCAGUCAUAUCUAAUGUAGAAAAAUCCGUUUCCAGUGAAAGUAAUAUGUAGUGCUUUUAUGAUAUUUGUGUGCAAUAUCCCCUCU,7.42 ratio
CCUCGAGAACGGGACUAUUUAAAAACAGUCUUGCACAGGAUUUAUGGCAAGUUUCUCGGGCUCCGAGCAUUUAUCCGAAAACAAAUUAACAAUAUUUUUCUAAGGUUUGUUUAUGAAACA,0.561 ratio

# Repeated from above (block 1):
Oligonucleotide,7-mer Z-score
AUCCUUG,-0.197
GUCUGGC,-0.0554
ACAUGGG,0.37
CCGCGAA,0.00254
AGAUAGC,-0.24
CUGCCUC,-0.342
UUGGUUC,-0.304
